# Assay results gathered from unrelated publications.
SMILES,test,test system,conditions,ED50
C=CCNCCc1c[nH]c2cccc(O)c12.C=CCNCCc1c[nH]c2cccc(O)c12.O=C(O)/C=C/C(=O)O,head twitch response,C57BL/6J mice,"subcutaneous, 30 min session",1.1 mg/kg
CCCCCn1cc(C(=O)c2ccc(CC)c3ccccc23)c2ccccc21,locomotor depression,male ND4 Swiss-Webster mice,intraperitoneal,0.78 mg/kg
C[C@@H]1NC(C)(C)CO[C@@]1(O)c1cccc2ccccc12,"nicotine antinociception, antagonist, tail-flick test",mice,"15 min pretreatment, together with: nicotine 2.5 mg/kg sc",0.034 to 0.054 mg/kg
CCCCCc1cc(O)c2c(c1)OC(C)(C)[C@@H]1CCC(C)=C[C@@H]21,hypothermia,"ICR mice, female, rectal temperature",intraperitoneal,5.95 mg/kg
COC(=O)[C@H]1[C@@H](c2ccc(Cl)c(C)c2)C[C@@H]2CC[C@H]1N2C,"nicotine antinociception, antagonist, hot-plate test",mice,together with: nicotine 2.5 mg/kg sc,0.35 to 9.8 mg/kg
CCNCCc1c[nH]c2cccc(O)c12.CCNCCc1c[nH]c2cccc(O)c12.O=C(O)CCC(=O)O,head twitch response,C57BL/6J mice,"subcutaneous, 30 min session",1.4 mg/kg
C=CCN1CC[C@]23c4c5ccc(O)c4O[C@H]2[C@H](NC(=O)CCCCCCCCCCC)CC[C@@]3(O)[C@H]1C5,"tail flick analgesia, radiant heat tail flick",CD-1 mice,subcutaneous,> 10 mg/kg
CCCCCn1cc(C(=O)NC(C(N)=O)C(C)(C)C)c2ccccc21 (stereo not shown),locomotor depression,male ND4 Swiss-Webster mice,intraperitoneal,1.07 mg/kg
Cc1ccc([C@H]2C[C@@H]3CC[C@H]([C@H]2c2cc(-c4ccc(Cl)cc4)no2)N3C)cc1,"nicotine conditioned place preference, antagonist",mice,together with: nicotine 0.5 mg/kg sc,0.013 to 0.15 mg/kg
O=C(O)/C=C/C(=O)O.Oc1cccc2[nH]cc(CCNCc3ccccc3)c12,head twitch response,C57BL/6J mice,"subcutaneous, 30 min session",1.2 mg/kg
CC[C@H](C)[C@H](NC(=O)[C@H](CCCNC(=N)N)NC(=O)[C@H](Cc1ccc(O)cc1)NC(=O)[C@H](Cc1ccc(O)cc1)NC(=O)[C@H](CCCNC(=N)N)NC(C)=O)C(=O)N[C@@H](CCCCN)C(N)=O,"mechanical allodynia, von Frey",CCI neuropathic mice,"intrathecal, 30 min",0.008 nmol
CCCCNCCc1c[nH]c2cccc(O)c12.O=C(O)/C=C/C(=O)O,head twitch response,C57BL/6J mice,"subcutaneous, 30 min session",> 30 mg/kg
O=C(c1cccc2ccccc12)c1nn(CCCCCF)c2ccccc12,locomotor depression,male ND4 Swiss-Webster mice,intraperitoneal,0.53 mg/kg

# Excerpt of the above:
SMILES,test,test system,conditions,ED50
CCCCCn1cc(C(=O)c2ccc(CC)c3ccccc23)c2ccccc21,locomotor depression,male ND4 Swiss-Webster mice,intraperitoneal,0.78 mg/kg
CCCCCn1cc(C(=O)NC(C(N)=O)C(C)(C)C)c2ccccc21 (stereo not shown),locomotor depression,male ND4 Swiss-Webster mice,intraperitoneal,1.07 mg/kg
